Results collected from several papers.
Numbered parts are unrelated; each lists some results of a single study. Positions count from the first letter of the parent shown.

Block 1 — technique: protein-binding microarray; form: double-stranded DNA, one strand shown; sample: in vitro; concentration: 2200 nM top; setting: 60-bp whole probe; together with: salmon DNA 0.4 mg/ml; baseline: random background probes; direction: higher = stronger binding; measurement: fitted relative affinity; constant ends, left off below: GCCTAGCAC … GTCTTGATTCGCTTGACGCTGCTG
Target: Interferon regulatory factor 7, full length, phosphomimetic (IRF7, Homo sapiens, UniProt Q92985, residues 1-503, S471D/S472D/S475D/S476D/S477D/S483D/S484D/S487D)
Target sequence (chain): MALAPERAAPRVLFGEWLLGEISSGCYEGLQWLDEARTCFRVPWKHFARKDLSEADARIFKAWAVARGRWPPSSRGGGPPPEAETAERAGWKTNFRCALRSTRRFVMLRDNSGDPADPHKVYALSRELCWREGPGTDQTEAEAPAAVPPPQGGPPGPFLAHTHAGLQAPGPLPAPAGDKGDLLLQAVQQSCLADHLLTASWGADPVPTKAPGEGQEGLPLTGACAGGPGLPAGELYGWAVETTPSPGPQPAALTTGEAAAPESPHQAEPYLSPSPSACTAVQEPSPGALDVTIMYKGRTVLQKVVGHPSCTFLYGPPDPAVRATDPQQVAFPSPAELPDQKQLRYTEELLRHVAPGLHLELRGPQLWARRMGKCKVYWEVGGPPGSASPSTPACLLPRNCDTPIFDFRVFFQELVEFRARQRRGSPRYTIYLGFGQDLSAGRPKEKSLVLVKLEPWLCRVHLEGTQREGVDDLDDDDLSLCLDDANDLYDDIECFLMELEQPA
GTAGGTATCGGGTATCGGTTAGTGCTA: 0.497 z-score
GACGGTATCCTTCTGCTGACGTGCTAG: 0.981 z-score
GACGGTATAGGTATCGGGACGTGCTAG: -0.338 z-score
TCATGTACGTCGTTTCCCACTGTGCTA: 1.93 z-score
GACGGTTCGGGTTTCGGGACGTGCTAG: 2.08 z-score

Block 2 — technique: universal PBM; form: double-stranded DNA, one strand shown; sample: in vitro; concentration: 600 nM; direction: higher = stronger binding; measurement: E-score
Target: Sal-like protein 4, full length isoform A (SALL4, Homo sapiens, UniProt Q9UJQ4, residues 1-1053)
UniProt Q9UJQ4, sequence (whole entry, looked up): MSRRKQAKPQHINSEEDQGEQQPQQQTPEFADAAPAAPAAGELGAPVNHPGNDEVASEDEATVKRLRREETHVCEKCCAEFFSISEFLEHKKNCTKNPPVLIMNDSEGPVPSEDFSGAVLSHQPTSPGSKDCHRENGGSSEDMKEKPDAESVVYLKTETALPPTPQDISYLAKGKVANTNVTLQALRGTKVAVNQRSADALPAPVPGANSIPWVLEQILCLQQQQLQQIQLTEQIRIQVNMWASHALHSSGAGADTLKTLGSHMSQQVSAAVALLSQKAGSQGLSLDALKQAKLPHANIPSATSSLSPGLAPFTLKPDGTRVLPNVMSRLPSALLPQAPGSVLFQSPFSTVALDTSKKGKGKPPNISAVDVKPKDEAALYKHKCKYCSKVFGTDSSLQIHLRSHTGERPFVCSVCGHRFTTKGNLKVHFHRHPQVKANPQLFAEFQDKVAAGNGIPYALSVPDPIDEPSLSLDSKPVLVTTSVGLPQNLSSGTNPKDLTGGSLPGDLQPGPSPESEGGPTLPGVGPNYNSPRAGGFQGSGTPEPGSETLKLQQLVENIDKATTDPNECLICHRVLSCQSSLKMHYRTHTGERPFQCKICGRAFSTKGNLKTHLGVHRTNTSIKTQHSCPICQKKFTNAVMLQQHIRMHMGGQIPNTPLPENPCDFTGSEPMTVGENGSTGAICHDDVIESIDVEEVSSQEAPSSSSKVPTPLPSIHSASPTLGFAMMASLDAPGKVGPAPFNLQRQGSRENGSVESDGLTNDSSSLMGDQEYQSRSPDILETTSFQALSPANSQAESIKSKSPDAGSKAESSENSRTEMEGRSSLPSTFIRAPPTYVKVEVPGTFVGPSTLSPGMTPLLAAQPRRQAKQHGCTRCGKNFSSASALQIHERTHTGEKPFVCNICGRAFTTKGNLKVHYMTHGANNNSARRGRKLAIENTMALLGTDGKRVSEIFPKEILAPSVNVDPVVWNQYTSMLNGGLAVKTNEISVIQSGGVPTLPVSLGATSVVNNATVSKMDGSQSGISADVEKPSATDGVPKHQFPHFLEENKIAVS
Setting: 8-mer, flanks averaged, mean of replicates
AAGGTACG: 0.119
CTAAGCCA: -0.148
AGGTTTCG: -0.172
GAATGCTC: -0.134
AAGTATAG: 0.168
GTGATAAC: 0.236
CATCGTGA: -0.149

Block 3 — target: CCND1, cyclin fold, Cln2 fusion (human); technique: yeast growth competition, sequencing; sample: yeast; setting: weak parent motif; baseline: not given; direction: higher = stronger binding; measurement: normalised enrichment score
Parent: GMNC docking peptide (human); KNAKRNLSSEFAN
KIAKRNLSSEFAN [N2I]: 0.179
KNAKRNLASEFAN [S8A]: 0.548
KNAKVNLSSEFAN [R5V]: -0.0403
KNAKTNLSSEFAN [R5T]: -0.145
KNAKRNLSLEFAN [S9L]: 0.87
KNASRNLSSEFAN [K4S]: 0.162
KNAKRNLSSELAN [F11L]: 0.558

Further values, each from its own experiment
PhoQ, residues 284 288 289 292 302 303 TLSLKA
fold induction (PhoP, residues 12 14 15 18 19 LYHSL (Escherichia coli, UniProt P23836); Sort-seq, refers to: YFP reporter; E. coli; PhoQ-PhoP variant library, together with: 10 µM Mg2+; baseline: high Mg2+ state, higher = stronger signaling): 1

Excerpt of the above (block 2):
AAGGTACG: 0.119
GTGATAAC: 0.236
CATCGTGA: -0.149
